Measurements collected from several papers.
Every numbered part comes from another study and shows a few of its results, in no order. Positions count from the first letter of the parent shown.

Sample 1
Target: RNA binding protein fox-1 homolog 2, RRM domain, GST-SBP tag (RBFOX2, Homo sapiens, UniProt O43251-10, residues 100-194)
Method: RNA Bind-n-Seq
Molecule type: RNA
Sample: in vitro
Concentration: 365 nM
Notes: natural RNA segment, single round, ends assumed
Baseline: no-protein control
Direction: higher = stronger binding
Quantity: RBNS enrichment (R)
Shared flanks, not repeated: GGGAGUUCUACAGUCCGACGAUC … UGGAAUUCUCGGGUGCCAA
Target sequence (chain): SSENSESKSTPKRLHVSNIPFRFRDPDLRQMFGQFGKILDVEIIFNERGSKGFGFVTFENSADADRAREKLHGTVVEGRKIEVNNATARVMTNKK
GGGUUGGGCGUGCUACCUGCACCGCCCCUUCUCCAACAAGUUGCCUCCAAGCUUUGGGUUGGAGCUGUUCCAUUGGGUCCUCUUGGUGUCGUUUCCCUCCCAACAGAGCU: 0.205
CUGACCCCUGCCACCCAGCAUAGACACACCUCACAGCUGCCCUGCCAUGCAGAGCCCUGGCCGCUGGAGACUCUUAAAGCCCCCACAGCCCUCCAGGUCCUCCAGCUCUG: 0.327
AUUGGUGCUAGCCCAUGGGAUCGAUCUCAAGUUGGGCUGGUUACUGGUUAGCCAUUCCCUCACUCUCUGUUCCCUCCUGCGUGCCUGCAUUUCCUAUAGACAGGUUAAAU: 0.379
GGCCUUAAAGGAAAUGGACAAAAAUUAUCCAGAAGGGGUACUUUUCCAUUGUAUCUUUCUAAUAAGGGUUUAAAAUGGUACUAUUAUGGUAUUGUACUUGGGCUUUAACA: 0.381
GUAAAACUGAAAUUAUUAUUAGCCAAUGCAUUGGUGCAUAGAAUUUACUAGGGCUACUUCUGGAAGCCAAAAUAGAAUAGCAUUUCCAUGUGCAUUAAAUACUUUGCCAG: 0.523
ACAGGGUUGAGUUGCAAAAGCCACAGCUCUUUGUUCUGUGUGCACUUUCUUGGAGAACCCCAUUGUGCACCCUGAGUUCUGCCUGUGCUUCGGCUGAUCCCAUAUUGGAC: 0.354
GUGCUCAUCCCCUUCCCUCCCGCUGCCCUCGGCGCCGCACUGUCAGCUCUGGGGCUGGCUGUCCUCCGCUCUGCGCCUGUCAGGCAGGGCACGUGCUCACAGCCCUGGGU: 1.57
UUUGUUAAAUUACCAAGUUUGGUUUUUAAUAAUUUCUCAAUAUUAUGCGCCAAGAUCUAAUUUUAAAACUGUAUGAGGACUUUGUGCUGAAAAUAGAGUAUUUUUUUAAA: 0.626

Sample 2
Target: Prothrombin, mature alpha-thrombin (F2, Homo sapiens, UniProt P00734)
Method: aptamer microarray, sandwich
Molecule type: DNA with 2'F-ANA
Sample: in vitro
Concentration: 200 nM
Notes: whole 15-mer aptamer, many near background
With: Cy3 exosite-II aptamer, 400 nM
Direction: higher = stronger binding
Quantity: mean fluorescence intensity
Strand: GGTTGGTGTGGTTGG
2'F-ANA at 1 2 3 4 7 10 11 15: 56.2 a.u.
2'F-ANA at 2 3 5 6 8 13: 76.7 a.u.
2'F-ANA at 2 4 6 7 8 9 10 12 13: 96.8 a.u.
2'F-ANA at 1 2 6 7 8 9 13 15: 115 a.u.
2'F-ANA at 1 4 5 6 7 8 11 13: 51.4 a.u.
2'F-ANA at 2 5 7 9 10 11 12 13 15: 47.6 a.u.
2'F-ANA at 8 9 12 14 15: 231 a.u.
2'F-ANA at 3 5 6 7 12 13 15: 160 a.u.
2'F-ANA at 1 2 3 5 6 7 8 9 11 12 13: 206 a.u.
2'F-ANA at 3 4 5 10 11 13 14 15: 49.3 a.u.
2'F-ANA at 2 4 6 8 9 10 11 12: 155 a.u.
2'F-ANA at 1 5 7 8 10 11 13 14 15: 52.8 a.u.
2'F-ANA at 1 3 4 6 7 12 15: 413 a.u.
2'F-ANA at 1 3 5 7 8 10 11 14 15: 144 a.u.
2'F-ANA at 1 2 3 4 5 10 11 12 14: 44.6 a.u.
2'F-ANA at 1 4 7 8 9 10 15: 54.3 a.u.
2'F-ANA at 4 5 6 7 8 9 10 12 13 15: 48.4 a.u.
2'F-ANA at 1 2 3 4 5 7 8 12 14: 49.7 a.u.
2'F-ANA at 3 4 7 9 11 12 13: 692 a.u.
2'F-ANA at 1 7 8 9 13 14: 57.9 a.u.

Sample 3
Target: PABPC1L2, full length, GST fusion (mouse, UniProt A0ABA7IW68)
Method: RNAcompete
Molecule type: RNA
Sample: in vitro
Concentration: 20 nM
Notes: 7-mer, probes averaged, single round
Baseline: mean of 7-mers
Direction: higher = stronger binding
Quantity: 7-mer Z-score
Target sequence (chain): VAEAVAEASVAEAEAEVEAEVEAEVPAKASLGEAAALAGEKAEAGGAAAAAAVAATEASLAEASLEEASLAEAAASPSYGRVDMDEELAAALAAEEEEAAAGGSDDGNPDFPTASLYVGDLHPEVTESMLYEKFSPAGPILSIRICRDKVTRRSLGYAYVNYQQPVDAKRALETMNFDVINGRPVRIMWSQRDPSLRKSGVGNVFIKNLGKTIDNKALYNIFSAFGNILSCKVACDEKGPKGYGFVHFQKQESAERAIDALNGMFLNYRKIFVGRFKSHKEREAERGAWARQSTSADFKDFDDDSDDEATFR
CCUGAUA: -0.0899
GGGUUUA: -0.112
CAACAUG: -0.00833
UAGCGGG: 0.0424
UCACAUA: -0.11
UCCACUG: -0.258
GGCAAGC: -0.0301
UAGCUUU: -0.264
UUAAGUA: -0.108
UACAGUC: -0.22
AUUGGCG: 0.0189
ACCCCUA: -0.338
UCCAACG: -0.106
GGUUAAU: -0.117
GGAUUCA: -0.0609
UUGCCGU: -0.405
AACCACC: 0.1
UGUCCUC: -0.362

Sample 4
Target: CCNA2, cyclin fold, Cln2 fusion (human)
Method: yeast growth competition, sequencing
Sample: yeast
Notes: strong parent motif
Baseline: not given
Direction: higher = stronger binding
Quantity: normalised enrichment score
Starting sequence: CABLES2 docking peptide (human); ICAKRSLCAAFSV
R5A: 0.191
C2A: 2.01
L7A: 0.174
V13A: 2.78
S6A: 1.48

Sample 5
Target: TAR DNA-binding protein 43, full length, His tag (TARDBP, Homo sapiens, UniProt Q13148, residues 1-414)
Method: RNA Bind-n-Seq
Molecule type: RNA
Sample: in vitro
Concentration: 20 nM
Notes: 6-mer, flanks averaged, single round
With: 150 mM KCl
Baseline: input library
Direction: higher = stronger binding
Quantity: 6-mer enrichment (R)
AAAUAA: 0.898
CCAGGC: 0.936
GUUAGA: 0.812
GCCGGG: 3.73
UUACCU: 0.583
UUGUGU: 1.04
UCCUAG: 0.635
UCAGAG: 0.936
CAAUGG: 1
UUCGCA: 0.609
UAGCCG: 0.823
CAAAAG: 0.718
UACACC: 0.68
ACGGUC: 0.741
